Results of several laboratories.
Lines come from different studies, so protocols differ. Several values in a cell are separate wells, animals, samples, runs or records. Numbers after ± are the reported error. In brackets after ≈: the same amount, converted by molar mass.

CCCSC(SCCC)c1ccc(OCCNS(=O)(=O)c2cccc(Br)c2)c(OC)c1  EC50 (Tobacco mosaic virus; inactivation activity; plant in vivo): 1546.8 ± 0.8 µg/mL
CCOC(=O)C1(Cc2cc(OC)cc(OC)c2)Oc2cc(F)ccc2N(Cc2cc(OC)cc(OC)c2)C1=O (stereo not shown)  inhibition (Eclipta prostrata; fresh weight, greenhouse postemergence; postemergence, 150 g ai/ha, 21 days): 63.4 ± 1.51%
[O-][N+]1=C(c2ccc(Cl)cc2)C2=NCCCCN2c2ccccc21  MIC50 (Prevotella spp.; bacterial growth): 0.5 µg/mL (≈ 1.53 µM)
CCCN1C(=O)C(CCC)(C(=O)OCC)Oc2cc(F)ccc21 (stereo not shown)  inhibition (Eclipta prostrata; fresh weight, greenhouse postemergence; postemergence, 150 g ai/ha, 21 days): 51 ± 3.53%
CC[C@H](C)[C@H](NC(=O)[C@H](CCCNC(=N)N)NC(=O)[C@H](CO)NC(=O)[C@H](Cc1ccc(O)cc1)NC(=O)[C@@H](NC(=O)[C@@H](NC(=O)[C@H](C)NC(=O)CNC(=O)[C@H](CCCCN)NC(=O)[C@H](CCCCN)NC(=O)CCNC(=O)CCCCCNC(=O)[C@H](CCCNC(=N)N)NC(=O)CCCCCNC(=O)[C@H](CCCNC(=N)N)NC(=O)[C@H](CCCNC(=N)N)NC(=O)CCCCCNC(=O)[C@H](CCCNC(=N)N)NC(=O)[C@H](CCCNC(=N)N)NC(=O)CCCCCNC(=O)[C@H](CCCNC(=N)N)NC(=O)[C@H](CCCNC(=N)N)NC(=O)CCCCCNC(=O)[C@@H](N)CCCNC(=N)N)C(C)C)[C@@H](C)O)C(=O)N[C@@H](CO)C(=O)NCC(=O)N[C@@H](CCC(N)=O)C(=O)N[C@@H](Cc1ccc(O)cc1)C(=O)N[C@@H](CCCCN)C(=O)O  MIC (Escherichia coli; ATCC 25922; 1 h, 37 °C, after 90% human serum): 48 µM (≈ 171 µg/mL)
FC(F)(F)c1cccc(CNc2nc(NC3CCN(Cc4ccccc4)CC3)c3nc[nH]c3n2)c1  median survival (Cryptococcus neoformans; Galleria mellonella larvae; 2 mg/kg single dose): 3 days
C[C@H](NC(=O)Cc1cc(F)cc(F)c1)C(=O)N[C@@H]1C(=O)N(C)c2ccccc2-c2ccccc21  EC50 (dengue virus type 2; viral replication, Renilla luciferase reporter virus; MEF; 48 h): 21 nM
CN(CCO)CCO.O=C(O)C(Cl)Cl  herbicidal inhibition (Eleusine indica; 15 mg/mL, 21 days, post-emergence, greenhouse): -44%
CC[C@H](C)[C@H](NC(=O)[C@H](C)NC(=O)CNC(=O)[C@H](C)NC(=O)[C@H](CCCCN)NC(=O)[C@H](CO)NC(=O)[C@H](C)NC(=O)[C@H](CCSC)NC(=O)CN)C(=O)N[C@@H](C)C(=O)NCC(=O)N[C@@H](CCCCN)C(=O)N[C@H](C(=O)N[C@@H](C)C(=O)N[C@@H](CCCCN)C(=O)N[C@H](C(=O)N[C@@H](C)C(=O)N[C@@H](CC(C)C)C(=O)N[C@@H](CCCCN)C(=O)N[C@@H](C)C(=O)N[C@@H](CC(C)C)C(N)=O)C(C)C)[C@@H](C)CC  combination index (Escherichia coli; CFT073 wild type; added: ampicillin): 1.1
O=C(NNc1ccccc1)c1nnc(C23CC4CC(CC(C4)C2)C3)o1  inhibition (Fusarium oxysporum; microbial growth; 50 µg/mL): 68.2%
CCOC(=O)C1(Cc2ccc(F)cc2)Oc2cc(F)ccc2N(Cc2ccc(F)cc2)C1=O (stereo not shown)  inhibition (Eclipta prostrata; fresh weight, greenhouse postemergence; postemergence, 150 g ai/ha, 21 days): 59 ± 2.26%
O=[N+]([O-])c1ccc(C2=[N+]([O-])c3ccccc3N3CCCN=C23)cc1  MIC50 (Prevotella spp.; bacterial growth): ≤ 0.06 µg/mL
CCOC(=O)C1(CC#N)Oc2cc(F)ccc2N(CC#N)C1=O (stereo not shown)  inhibition (Eclipta prostrata; fresh weight, greenhouse postemergence; postemergence, 150 g ai/ha, 21 days): 61.3 ± 2.84%
CSCC[C@H](N)C(=O)N[C@@H](CC(=O)O)C(=O)N[C@@H](CC(C)C)C(=O)N1CCC[C@H]1C(=O)N[C@@H](Cc1ccccc1)C(=O)N[C@H](CCC(=O)O)C(=O)N[C@@H](Cc1ccccc1)C(N)=O  survival rate (Bacillus cereus; ATCC 14579, CD-1 mouse septicemia model; intravenous, 5 mg/kg twice daily, 6 d): ≤ 85%
CCc1nn(C)c2nc(-c3ccc(C(=O)O)cc3)nc(NCc3ccccc3)c12  parasite number (Cryptosporidium parvum; HCT-8; EC90, 6 h; relative to: DMSO control): 62.9% and 104% and 67.5% and 87.4%
COC(=O)C1=CO[C@@H](C)[C@@H]2Cn3ccc4c5ccccc5nc-4c3C[C@H]12  IC50 (Plasmodium falciparum; growth; C2B, atovaquone-resistant; 96 h): 125 ± 59 nM
CCCCSC(SCCCC)c1ccc(OCCNS(=O)(=O)c2ccc(F)cc2)c(OC)c1  EC50 (Tobacco mosaic virus; inactivation activity; plant in vivo): 48.1 ± 2 µg/mL
Cc1cc(C(=O)Nc2nc3cccc(C)c3n2[C@H]2CCCCN(C(=O)/C=C/CN(C)C)C2)ccn1  cell cycle distribution (Trypanosoma brucei; propidium iodide flow cytometry, item: G2/M phase; bloodstream CLK1 over-expression uninduced; concentration not given): 45.7% and 45.8% and 41.9%
COc1cc(C(SC(C)C)SC(C)C)ccc1OCCNS(=O)(=O)c1cccc(Br)c1  EC50 (Tobacco mosaic virus; protective activity; plant in vivo): 200.7 ± 1.9 µg/mL
[O-][N+]1=C(c2ccccc2)C2=NCCCN2c2ncccc21  MIC90 (Parabacteroides distasonis and Bacteroides spp.; bacterial growth): ≤ 0.06 µg/mL
C[C@@]1(O)[C@H](O)[C@@H](CO)O[C@H]1n1ccc2c(N)ncnc21  EC50 (dengue virus type 2; viral replication, Renilla luciferase reporter virus; Huh-7.5.1; 48 h): 1140 nM
CCOC(=O)C1(Cc2ccccc2)Oc2cc(OC)ccc2N(Cc2ccccc2)C1=O (stereo not shown)  inhibition (Echinochloa crus-galli; fresh weight, greenhouse postemergence; postemergence, 150 g ai/ha, 21 days): 43 ± 1.79%
CCSC(SCC)c1ccc(OCCNS(=O)(=O)c2ccc(C)cc2)c(OC)c1  EC50 (Tobacco mosaic virus; inactivation activity; plant in vivo): 566.5 ± 2.2 µg/mL
C[C@H]1O[C@@H](O[C@H]2CC[C@@]3(C)[C@H](C2)C[C@@H]2O[C@]24[C@@H]3C[C@@H](O)[C@]2(C)[C@@H](C3=CC(=O)OC3)CC[C@@]24O)[C@H](O)[C@H](O)[C@@H]1O[C@@H]1O[C@H](CO)[C@@H](O)[C@H](O)[C@H]1O  hatchlings per female (Oncopeltus fasciatus; diet, concentration not given): 121
CCOC(=O)C1(Cc2cc(F)cc(F)c2)Oc2cc(F)ccc2N(Cc2cc(F)cc(F)c2)C1=O (stereo not shown)  inhibition (Eclipta prostrata; fresh weight, greenhouse postemergence; postemergence, 150 g ai/ha, 21 days): 53.5 ± 3.42%
Cc1cc(N2CCC(C#N)(C3(C)CC3)C2=O)cc(C(=O)NCc2cc(F)cc(-c3cnn(C)c3)c2)n1 (racemic)  IC50 (Plasmodium falciparum; parasite growth, [3H]hypoxanthine incorporation; Dd2 Pfeef2 mutant): 16 nM
COc1ccc(C2=[N+]([O-])c3ccccc3N3CCCN=C23)cc1  MIC50 (Parabacteroides distasonis and Bacteroides spp.; bacterial growth): 1 µg/mL (≈ 3.25 µM)
CCn1cnc2c(Oc3ccc(/C=C/C(=O)c4ccc(NS(=O)(=O)c5ccccc5C)cc4)cc3)ncnc21  EC50 (tobacco mosaic virus; inactivation activity; in vivo plant): 91.7 ± 1.8 µg/mL
CCOC(=O)C1(Cc2cc(F)c(F)c(F)c2)Oc2cc(F)ccc2N(Cc2cc(F)c(F)c(F)c2)C1=O (stereo not shown)  inhibition (Echinochloa crus-galli; fresh weight, greenhouse postemergence; postemergence, 150 g ai/ha, 21 days): 49.1 ± 1.47%
[O-][N+]1=C(c2ccc(Cl)cc2)C2=NCCCN2c2ccccc21  MIC50 (Prevotella spp.; bacterial growth): 0.5 µg/mL (≈ 1.6 µM)
CC[C@H](C)CCCCC(=O)N[C@@H](CCN)C(=O)N[C@H](C(=O)N[C@@H](CCN)C(=O)N[C@H]1CCNC(=O)[C@H]([C@@H](C)O)NC(=O)[C@H](CCN)NC(=O)[C@H](CCN)NC(=O)[C@H](CC(C)C)NC(=O)[C@@H](CC(C)C)NC(=O)[C@H](CCN)NC1=O)[C@@H](C)O  MIC fold change (Escherichia coli; daily serial passaging; ATCC 8739; highest sub-MIC, 48 days; relative to: initial MIC): 3.42
CCCSC(SCCC)c1ccc(OCCNS(=O)(=O)c2ccc(Cl)cc2)c(OC)c1  EC50 (Tobacco mosaic virus; inactivation activity; plant in vivo): 164.5 ± 1.4 µg/mL
CN(C(=O)c1ccn2ncc(-c3ccc(C(N)=O)cc3)c2c1)c1ccc(C#N)cn1  faecal Nluc luminescence (Cryptosporidium parvum; UGA1 Nluc, IFN-gamma knockout C57BL/6 mice, faeces; oral, 10 mg/kg daily, 312 h post infection, treatment days 11-17; higher means more parasites): 428 a.u. and 54 a.u. and 1290 a.u. and 13000 a.u. and 175 a.u.
[O-][N+]1=C(c2ccsc2)C2=NCCCN2c2ccccc21  MIC90 (Parabacteroides distasonis and Bacteroides spp.; bacterial growth): 0.5 µg/mL (≈ 1.76 µM)
CCCCSC(SCCCC)c1ccc(OCCNS(=O)(=O)c2c(F)cccc2F)c(OC)c1  EC50 (Tobacco mosaic virus; curative activity; plant in vivo): 215 ± 2.9 µg/mL
COc1ccc(C2=[N+]([O-])c3ccccc3N3CCN=C23)cc1  MIC90 (Prevotella spp.; bacterial growth): ≤ 0.06 µg/mL
CCSC(SCC)c1ccc(OCCNS(=O)(=O)c2ccc(C)cc2)cc1  EC50 (Tobacco mosaic virus; inactivation activity; plant in vivo): 515 ± 0.6 µg/mL
